Published values collected from several papers.
Lines come from different studies, so protocols differ. “And” joins repeats or separate records; there may be more than shown.
Cell line: MCF7

SMILES | assay | conditions | scale | measurement | value
CN[C@@H]1C[C@H]2O[C@@](C)([C@@H]1OC)n1c3ccccc3c3c4c(c5c6ccccc6n2c5c31)C(=O)NC4 | annexin V/PI flow cytometry | 2.5 µM, 24 h |  | necrotic cells | 7.23%
NNC(=O)Cn1c2ccccc2c2cn[nH]c(=O)c21 | RT-PCR, item: Bcl-2 | 5 µM, 48 h, normalised to β-actin | reference: untreated | fold change | 0.38
[Cl][Au].c1ccc(P(c2ccccc2)c2ccccc2)cc1 | cell growth or viability, resazurin | 72 h |  | EC50 | 3.57 µM and 3.6 µM
COc1ccccc1N=NNc1ccccc1OC | cell growth or viability, LDH |  |  | IC50 | 2.17 µM
CC[C@H](C)[C@@H]([C@@H](CC(=O)N1CCC[C@H]1[C@H](OC)[C@@H](C)C(=O)N[C@@H](Cc1ccccc1)c1nccs1)OC)N(C)C(=O)[C@@H](NC(=O)[C@H](C(C)C)N(C)C)C(C)C | cell growth or viability | 48 h |  | IC50 | 5.5e-05 µM
Cn1nnc2c(C(N)=O)ncn2c1=O | cell growth or viability, LDH |  |  | IC50 | 0.77 µM
C=C1C[C@@H]2[C@H](CC[C@]3(C)C(=O)CC[C@@H]23)[C@@]2(C)C=CC(=O)C=C12 | cell proliferation, BrdU | 100 nM, 48 h, together with: DHEA 5 µM |  | inhibition | ~50%
CCCCCc1cc(O)c2c(c1)OC(C)(C)c1ccc(C)cc1-2 | cell growth or viability, MTT | 72 h |  | IC50 | 44.9 µM
COC1=CC(=O)N(C(=O)[C@@H](OC(=O)[C@@H]2CCCN2C(=O)[C@@H]2CCCN2C(=O)[C@H](C(C)C)N(C)C(=O)[C@@H](NC(=O)[C@H](C(C)C)N(C)C)C(C)C)C(C)C)[C@H]1Cc1ccccc1 | cell growth or viability | 48 h |  | IC50 | 0.00019 µM
C=C(C)[C@@H]1CCC(C)=C[C@H]1c1c(O)cc(CCCCC)cc1O | cell growth or viability, MTT | 72 h |  | IC50 | 24.1 µM
O=[N+]([O-])c1ccc(N=NNCCO)cc1 | cell growth or viability, LDH |  |  | IC50 | 6.14 µM
CC[C@H](C)[C@H](NC(=O)[C@@H](N)Cc1ccccc1)C(=O)NCC(=O)N[C@H](C(=O)N[C@@H](CC(C)C)C(=O)N[C@H](C(=O)N1CCC[C@H]1C(=O)N[C@@H](CC(C)C)C(=O)N[C@@H](C)C(=O)N[C@@H](CC(C)C)C(=O)NCC(=O)N[C@@H](C)C(=O)N[C@@H](CC(C)C)C(=O)N[C@H](C(=O)N[C@@H](CCCCN)C(=O)N[C@@H](CC(C)C)C(=O)N[C@@H](Cc1ccccc1)C(=O)N[C@@H](CCCCN)C(N)=O)[C@@H](C)O)[C@@H](C)CC)[C@@H](C)O | cell growth or viability, CCK-8 | 24 h |  | IC50 | 11.2 µM
C[C@H](NCCc1ccc(O)cc1)C(=O)c1ccc(OCc2ccccc2)cc1 | cell viability, MTT | 72 h |  | IC50 | 13.2 µM
N.N.[Cl][Pt][Cl] | cell growth or viability, MTT | 48 h |  | IC50 | 7.24 µM
CC[C@H](C)[C@H](NC(=O)[C@H](CCCCN)NC(=O)[C@H](CCCCN)NC(=O)[C@H](CC(C)C)NC(=O)[C@@H](NC(=O)[C@H](CCCCN)NC(=O)[C@H](C)NC(=O)[C@H](C)NC(=O)[C@@H](NC(=O)CNC(=O)[C@H](C)NC(=O)[C@@H](NC(=O)[C@@H](NC(=O)[C@@H]1CCCN1C(=O)[C@H](Cc1ccccc1)NC(=O)[C@@H](N)Cc1ccccc1)[C@@H](C)CC)C(C)C)C(C)C)C(C)C)C(=O)N[C@@H](Cc1ccccc1)C(=O)N[C@H]1CSSC[C@@H](C(=O)O)NC(=O)[C@H](CCCCN)NC(=O)[C@H](CCCCN)NC(=O)[C@H](CO)NC(=O)[C@H]([C@@H](C)CC)NC(=O)[C@H]([C@@H](C)O)NC1=O | cell growth or viability, MTT |  |  | IC50 | 7.6 µM

For quick reference, copied from above:
SMILES | assay | conditions | scale | measurement | value
[Cl][Au].c1ccc(P(c2ccccc2)c2ccccc2)cc1 | cell growth or viability, resazurin | 72 h |  | EC50 | 3.57 µM and 3.6 µM
